Published values from different studies.
Each numbered part is a random draw from the data of one study; scales do not carry over between parts. Several values in a cell are separate wells, animals, samples, runs or records.
Sequence of UniProt Q9NR20 (whole entry, looked up): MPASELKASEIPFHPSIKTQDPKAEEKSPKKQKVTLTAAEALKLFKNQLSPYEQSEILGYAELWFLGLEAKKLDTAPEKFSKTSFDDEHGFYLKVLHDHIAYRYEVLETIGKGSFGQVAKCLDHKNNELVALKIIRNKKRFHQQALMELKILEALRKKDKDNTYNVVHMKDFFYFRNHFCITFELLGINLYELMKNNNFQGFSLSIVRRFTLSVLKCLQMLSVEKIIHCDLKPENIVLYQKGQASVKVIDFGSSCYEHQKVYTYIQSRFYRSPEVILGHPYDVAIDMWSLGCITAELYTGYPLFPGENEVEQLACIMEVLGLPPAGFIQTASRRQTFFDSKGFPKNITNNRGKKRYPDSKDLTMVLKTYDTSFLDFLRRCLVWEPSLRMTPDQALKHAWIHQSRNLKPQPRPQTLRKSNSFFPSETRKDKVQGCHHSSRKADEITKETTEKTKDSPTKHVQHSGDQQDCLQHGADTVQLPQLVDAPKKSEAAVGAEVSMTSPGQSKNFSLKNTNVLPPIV
Sequence of UniProt P34947 (whole entry, looked up): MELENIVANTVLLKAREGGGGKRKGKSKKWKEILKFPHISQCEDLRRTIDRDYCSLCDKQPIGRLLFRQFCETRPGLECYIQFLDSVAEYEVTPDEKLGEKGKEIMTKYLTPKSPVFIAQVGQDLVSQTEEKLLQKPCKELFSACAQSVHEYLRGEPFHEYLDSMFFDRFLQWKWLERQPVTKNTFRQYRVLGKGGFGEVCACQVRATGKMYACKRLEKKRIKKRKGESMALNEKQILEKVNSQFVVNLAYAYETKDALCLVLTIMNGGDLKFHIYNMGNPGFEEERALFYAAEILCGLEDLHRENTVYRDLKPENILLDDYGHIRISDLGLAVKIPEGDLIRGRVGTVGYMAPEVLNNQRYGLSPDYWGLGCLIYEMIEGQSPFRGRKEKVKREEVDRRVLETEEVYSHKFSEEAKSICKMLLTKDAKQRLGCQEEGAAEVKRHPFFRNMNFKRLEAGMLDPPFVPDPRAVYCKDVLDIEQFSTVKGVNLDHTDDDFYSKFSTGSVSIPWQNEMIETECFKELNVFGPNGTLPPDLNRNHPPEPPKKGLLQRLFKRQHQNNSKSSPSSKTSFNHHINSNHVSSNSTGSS
Sequence of UniProt Q9Y2U5 (whole entry, looked up): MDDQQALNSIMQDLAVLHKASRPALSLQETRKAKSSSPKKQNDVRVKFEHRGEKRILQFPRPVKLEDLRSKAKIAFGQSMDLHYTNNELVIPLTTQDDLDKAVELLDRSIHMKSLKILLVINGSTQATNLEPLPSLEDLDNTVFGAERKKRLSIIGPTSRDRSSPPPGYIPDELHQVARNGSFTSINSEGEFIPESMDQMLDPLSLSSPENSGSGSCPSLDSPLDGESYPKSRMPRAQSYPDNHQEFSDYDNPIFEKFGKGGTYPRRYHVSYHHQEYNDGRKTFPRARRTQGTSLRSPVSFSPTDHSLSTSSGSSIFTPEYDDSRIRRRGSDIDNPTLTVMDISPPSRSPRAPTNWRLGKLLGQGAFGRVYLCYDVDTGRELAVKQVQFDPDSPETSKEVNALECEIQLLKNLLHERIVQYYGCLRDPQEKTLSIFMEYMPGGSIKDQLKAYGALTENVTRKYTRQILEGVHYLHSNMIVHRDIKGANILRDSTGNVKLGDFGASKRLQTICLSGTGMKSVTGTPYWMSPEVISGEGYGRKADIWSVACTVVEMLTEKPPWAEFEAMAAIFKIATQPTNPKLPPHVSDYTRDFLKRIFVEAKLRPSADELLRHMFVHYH
Sequence of UniProt P50613 (whole entry, looked up): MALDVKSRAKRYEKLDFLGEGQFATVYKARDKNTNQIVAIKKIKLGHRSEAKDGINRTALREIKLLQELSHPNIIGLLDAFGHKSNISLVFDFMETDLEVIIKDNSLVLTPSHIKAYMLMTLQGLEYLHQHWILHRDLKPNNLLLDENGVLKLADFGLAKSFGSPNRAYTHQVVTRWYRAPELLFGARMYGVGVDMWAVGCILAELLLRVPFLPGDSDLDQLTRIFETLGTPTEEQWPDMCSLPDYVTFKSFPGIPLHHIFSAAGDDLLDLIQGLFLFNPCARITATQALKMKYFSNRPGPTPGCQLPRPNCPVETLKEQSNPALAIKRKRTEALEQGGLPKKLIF
Sequence of UniProt O14965 (whole entry, looked up): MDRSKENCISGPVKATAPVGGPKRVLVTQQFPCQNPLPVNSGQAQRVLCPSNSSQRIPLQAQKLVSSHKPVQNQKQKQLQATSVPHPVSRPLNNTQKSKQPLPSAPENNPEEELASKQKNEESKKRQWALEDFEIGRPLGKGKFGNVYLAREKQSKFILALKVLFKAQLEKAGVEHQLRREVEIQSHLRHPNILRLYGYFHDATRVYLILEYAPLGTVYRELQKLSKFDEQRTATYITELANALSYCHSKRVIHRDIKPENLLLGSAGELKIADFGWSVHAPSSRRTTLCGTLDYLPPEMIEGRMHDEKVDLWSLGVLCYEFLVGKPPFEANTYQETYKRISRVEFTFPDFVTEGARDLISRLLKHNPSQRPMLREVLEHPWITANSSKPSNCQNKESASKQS

Sample 1 — read-out: binding; action: competitor; technique: NanoBRET; cell line: HEK293
Structure (SMILES): CC(=O)N1CCN(c2nc(OC[C@@H]3CCCN3C)nc3c2CCN(c2cccc4cccc(Cl)c24)C3)C[C@@H]1CC#N
KRAS Q61H: GTPase KRas (KRAS, Homo sapiens, UniProt P01116, Q61H)
KRAS Q61H; 11.1 µM — normalized BRET: 15.4% and 20% and 17.7%.
It gave 61.9% and 62.6% and 61.4% for normalized BRET (GTPase KRas (KRAS, Homo sapiens, UniProt P01116, G12D); 33.3 µM).
It gave 29.7% and 31.3% and 30.1% for normalized BRET (KRAS Q61H; 3.7 µM).
For KRAS Q61H; 1.24 µM: normalized BRET read 51% and 51.1% and 57.6%.
The normalized BRET was 97.6% and 105% and 94% (GTPase KRas (KRAS, Homo sapiens, UniProt P01116, Q61R); 412 nM).
It gave 16.7% and 12% and 10.4% for normalized BRET (GTPase KRas (KRAS, Homo sapiens, UniProt P01116, G13D); 11.1 µM).

Sample 2 — SMILES: COc1ccc(-c2cnc3c(-c4ccsc4)cnn3c2)cc1; read-out: enzyme activity; action: inhibitor; concentration: 0.5 µM; relative to: control
For RET (Homo sapiens, UniProt P07949): remaining activity read 92%.
For CSNK2A2 (Homo sapiens, UniProt P19784): remaining activity read 87.3%.
MAP3K2 (Homo sapiens, UniProt Q9Y2U5) — remaining activity: 98.7%.
CDK7 (Homo sapiens, UniProt P50613) — remaining activity: 100%.
For DYRK4 (Homo sapiens, UniProt Q9NR20): remaining activity read 129%.
Aurora kinase A (AURKA, Homo sapiens, UniProt O14965) — remaining activity: 68%.
It gave 100% for remaining activity (DMPK (Homo sapiens, UniProt Q09013)).
The remaining activity was 86.3% (SLK (Homo sapiens, UniProt Q9H2G2)).
For PRKD1 (Homo sapiens, UniProt Q15139): remaining activity read 95.1%.
It gave 81.8% for remaining activity (PTK2B (Homo sapiens, UniProt Q14289)).
CAMK1D (Homo sapiens, UniProt Q8IU85) — remaining activity: 93.5%.
HIPK3 (Homo sapiens, UniProt Q9H422) — remaining activity: 103%.
For Cyclin-dependent kinase 2, with cyclin A (CDK2, Homo sapiens, UniProt P24941): remaining activity read 83%.
It gave 97.4% for remaining activity (GRK5 (Homo sapiens, UniProt P34947)).
MAP3K8 (Homo sapiens, UniProt P41279) — remaining activity: 105%.
For EGFR (Homo sapiens, UniProt P00533): remaining activity read 92.3%.
The remaining activity was 100% (CAMK1G (Homo sapiens, UniProt Q96NX5)).
For ROCK2 (Homo sapiens, UniProt O75116): remaining activity read 90.4%.
The remaining activity was 49.8% (NTRK3 (Homo sapiens, UniProt Q16288)).
PKN2 (Homo sapiens, UniProt Q16513) — remaining activity: 107%.
The remaining activity was 98.8% (ROS1 (Homo sapiens, UniProt P08922)).

Sample 3 — organism: Sarcocystis neurona; read-out: parasite growth; concentration: 10 µM; relative to: untreated
`C[C@]12CCC(=O)C=C1CC[C@@H]1[C@@H]2CC[C@@]2(C)[C@H]1CC[C@]2(O)C(=O)CO`: “log2 fold change” -0.32.
`CC(C)[N+]1(C)[C@@H]2CC[C@H]1CC(OC(=O)C(CO)c1ccccc1)C2.[Br-]` (some centres unmarked) — result for “log2 fold change”: 0.3.
`O=c1ncc(F)c[nH]1` — result for “log2 fold change”: -0.38.
For `CC(=O)CCCCn1cnc2c1c(=O)n(C)c(=O)n2C`, “log2 fold change” read 0.26.
For `Nc1ncnc2c1ncn2[C@@H]1O[C@H](CO)C[C@H]1O`, “log2 fold change” read 0.27.
`COc1cc(N)c(Cl)cc1C(=O)NC1CCN(CCCOc2ccc(F)cc2)CC1OC.O` (centres unmarked): “log2 fold change” -0.1.
`CCN(CC)CCNC(=O)c1cc(Cl)c(N)cc1OC.Cl`: “log2 fold change” 0.26.
Under “log2 fold change”, `Cl.Nc1nc2ccc(OC(F)(F)F)cc2s1` is recorded as 1.81.
For `CN1CCc2cc(Cl)c(O)cc2[C@@H](c2ccccc2)C1.Cl`, “log2 fold change” read 0.36.

Sample 4 — read-out: ATPase activity; concentration: concentration not given; setting: average; added: with ssDNA
Target: DNA polymerase theta, helicase domain (POLQ, Homo sapiens, UniProt O75417)
Sequence of UniProt O75417 (whole entry, looked up): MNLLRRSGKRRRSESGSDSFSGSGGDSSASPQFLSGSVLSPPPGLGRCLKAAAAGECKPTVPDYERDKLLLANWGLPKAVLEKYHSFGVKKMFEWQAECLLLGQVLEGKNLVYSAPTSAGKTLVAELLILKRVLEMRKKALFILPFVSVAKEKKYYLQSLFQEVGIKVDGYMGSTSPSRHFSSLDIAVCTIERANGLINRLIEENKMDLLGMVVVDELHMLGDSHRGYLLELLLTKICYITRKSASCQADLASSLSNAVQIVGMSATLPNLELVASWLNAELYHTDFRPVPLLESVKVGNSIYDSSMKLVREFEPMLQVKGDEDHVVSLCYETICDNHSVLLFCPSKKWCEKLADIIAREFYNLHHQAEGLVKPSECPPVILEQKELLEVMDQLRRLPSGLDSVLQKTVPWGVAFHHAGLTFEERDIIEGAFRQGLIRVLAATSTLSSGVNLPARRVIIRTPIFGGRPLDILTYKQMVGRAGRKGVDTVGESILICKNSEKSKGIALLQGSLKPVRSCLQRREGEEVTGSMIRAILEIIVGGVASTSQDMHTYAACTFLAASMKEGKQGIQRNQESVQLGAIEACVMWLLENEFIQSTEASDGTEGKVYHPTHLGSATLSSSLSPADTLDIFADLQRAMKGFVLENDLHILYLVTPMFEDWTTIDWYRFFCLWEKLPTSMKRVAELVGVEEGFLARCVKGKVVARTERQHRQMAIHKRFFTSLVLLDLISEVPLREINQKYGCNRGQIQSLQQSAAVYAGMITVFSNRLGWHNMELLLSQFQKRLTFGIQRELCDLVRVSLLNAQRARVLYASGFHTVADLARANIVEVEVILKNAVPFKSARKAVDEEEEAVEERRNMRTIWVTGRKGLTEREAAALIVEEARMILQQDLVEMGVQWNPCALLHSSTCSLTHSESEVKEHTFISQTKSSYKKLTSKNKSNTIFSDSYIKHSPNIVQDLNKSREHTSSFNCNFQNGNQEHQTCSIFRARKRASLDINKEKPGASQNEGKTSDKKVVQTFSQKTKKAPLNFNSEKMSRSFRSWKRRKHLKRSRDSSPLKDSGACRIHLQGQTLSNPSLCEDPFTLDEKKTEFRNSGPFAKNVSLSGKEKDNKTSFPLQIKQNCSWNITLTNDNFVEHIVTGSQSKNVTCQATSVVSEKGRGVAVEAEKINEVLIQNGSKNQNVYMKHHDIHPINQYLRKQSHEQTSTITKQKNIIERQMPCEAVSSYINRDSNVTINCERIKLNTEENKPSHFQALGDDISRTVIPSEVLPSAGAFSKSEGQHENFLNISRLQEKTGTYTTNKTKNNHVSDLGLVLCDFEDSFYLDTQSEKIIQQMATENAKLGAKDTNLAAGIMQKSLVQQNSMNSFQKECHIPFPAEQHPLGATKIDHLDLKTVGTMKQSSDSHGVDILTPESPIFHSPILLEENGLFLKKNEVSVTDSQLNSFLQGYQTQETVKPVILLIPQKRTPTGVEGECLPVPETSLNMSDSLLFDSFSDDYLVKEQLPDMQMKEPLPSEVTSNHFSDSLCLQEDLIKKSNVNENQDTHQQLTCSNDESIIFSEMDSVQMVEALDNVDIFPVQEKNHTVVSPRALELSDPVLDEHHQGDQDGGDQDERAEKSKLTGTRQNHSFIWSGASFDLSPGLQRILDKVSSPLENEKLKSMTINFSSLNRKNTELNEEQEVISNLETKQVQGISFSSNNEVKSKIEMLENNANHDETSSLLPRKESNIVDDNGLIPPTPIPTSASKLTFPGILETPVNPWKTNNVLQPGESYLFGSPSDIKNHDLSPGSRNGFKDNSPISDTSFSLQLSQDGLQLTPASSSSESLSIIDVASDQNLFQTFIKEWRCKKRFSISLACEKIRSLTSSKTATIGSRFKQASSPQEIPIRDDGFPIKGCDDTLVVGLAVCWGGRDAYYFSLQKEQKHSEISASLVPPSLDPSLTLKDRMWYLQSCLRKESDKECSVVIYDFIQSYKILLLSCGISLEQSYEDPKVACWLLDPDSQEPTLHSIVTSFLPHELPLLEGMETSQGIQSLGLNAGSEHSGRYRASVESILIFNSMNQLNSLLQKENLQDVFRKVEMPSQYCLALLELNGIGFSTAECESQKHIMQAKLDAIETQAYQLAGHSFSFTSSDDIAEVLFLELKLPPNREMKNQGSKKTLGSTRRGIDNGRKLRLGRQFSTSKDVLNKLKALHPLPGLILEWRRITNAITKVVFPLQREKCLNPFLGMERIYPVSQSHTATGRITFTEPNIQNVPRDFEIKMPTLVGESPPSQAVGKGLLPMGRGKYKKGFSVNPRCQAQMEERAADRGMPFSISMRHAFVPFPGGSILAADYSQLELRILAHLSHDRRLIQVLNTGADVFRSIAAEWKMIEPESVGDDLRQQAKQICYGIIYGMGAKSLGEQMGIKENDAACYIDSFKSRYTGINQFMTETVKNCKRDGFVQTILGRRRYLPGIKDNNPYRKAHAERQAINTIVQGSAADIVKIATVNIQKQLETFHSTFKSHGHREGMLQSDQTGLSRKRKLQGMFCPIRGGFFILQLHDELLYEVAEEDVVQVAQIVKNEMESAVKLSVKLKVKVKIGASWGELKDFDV
`Cc1ccccc1C(=O)Nc1sc2c(c1C(=O)O)CCC(C(C)(C)C)C2` (centres unmarked) gave a remaining activity of 65.8%.
`C[C@H]1[C@H](C)CC[C@]2(C(=O)O)CC[C@]3(C)C(=CC[C@@H]4[C@@]5(C)C[C@@H](O)[C@H](O)[C@@](C)(CO)[C@@H]5CC[C@]43C)[C@H]12` has a remaining activity of 56.2%.
With `COc1ccc(C(=O)Nc2noc3ccccc23)cc1` the remaining activity was 63.1%.
With `Cc1ccc(C(=O)c2cc(O)c(O)c([N+](=O)[O-])c2)cc1` the remaining activity was 50.8%.
The remaining activity of `Cc1noc(C)c1S(=O)(=O)Nc1ccc(C(=O)Nc2ccc(Br)cc2)cc1` is reported as 56.4%.
The remaining activity of `Cc1ccc(C(=O)Nc2ccccc2C(=O)O)cc1S(=O)(=O)N1CCCCCC1` is reported as 68.8%.
The remaining activity of `CC(=O)Oc1cccc2c1C(=O)c1c(OC(C)=O)cc(C(=O)O)cc1C2=O` is reported as 57.4%.
`O=C(O)c1cccnc1Nc1cccc(C(F)(F)F)c1` has a remaining activity of 62.6%.

Some of these lines once more (sample 1):
KRAS Q61H; 11.1 µM — normalized BRET: 15.4% and 20% and 17.7%.
It gave 61.9% and 62.6% and 61.4% for normalized BRET (GTPase KRas (KRAS, Homo sapiens, UniProt P01116, G12D); 33.3 µM).
It gave 29.7% and 31.3% and 30.1% for normalized BRET (KRAS Q61H; 3.7 µM).
For KRAS Q61H; 1.24 µM: normalized BRET read 51% and 51.1% and 57.6%.
The normalized BRET was 97.6% and 105% and 94% (GTPase KRas (KRAS, Homo sapiens, UniProt P01116, Q61R); 412 nM).
It gave 16.7% and 12% and 10.4% for normalized BRET (GTPase KRas (KRAS, Homo sapiens, UniProt P01116, G13D); 11.1 µM).
